Measurements gathered from unrelated publications.
Lines come from different studies, so protocols differ. “And” joins repeats or separate records; there may be more than shown.
ABL1 T315I: Tyrosine-protein kinase ABL1 (ABL1, Homo sapiens, UniProt P00519, T315I)
ABL1 F317L: Tyrosine-protein kinase ABL1 (ABL1, Homo sapiens, UniProt P00519, F317L)

Structure (SMILES) | target | test | conditions | scale | quantity | value
O=C(NC1CCC1)c1ccc2nc(-c3cccc(NS(=O)(=O)NCCN4CCCCC4)c3)cn2c1 | Tyrosine-protein kinase ABL1 (ABL1, Homo sapiens, UniProt P00519, M351T) | enzyme activity | 10 µM | – | remaining activity | 65%
COc1ccnn2ncc(-c3ccnc(N(C)C)n3)c12 | ABL1 T315I | KINOMEscan | 1 µM | reference: control | remaining binding | 67% and 100%
[2H]c1cc(C)c(NC(=O)c2cnc(Nc3cc(N4CCC(O)CC4)nc(C)n3)s2)c(Cl)c1 | Tyrosine-protein kinase ABL1 (ABL1, Homo sapiens, UniProt P00519, E255K) | – | 0.001 µM | – | inhibition | > 50%
CN(C)c1nccc(-c2cnc3ncccn23)n1 | ABL1 F317L | KINOMEscan | 1 µM | – | remaining binding | 50%
CN1CCN(c2ccc(Nc3nccc(-c4ccccc4)n3)cc2C(F)(F)F)CC1 | Tyrosine-protein kinase ABL1 (ABL1, Homo sapiens, UniProt P00519, F317I) | – | 10 µM | – | percent of control | 87%
COc1cc(F)ccc1-c1ncnc(Nc2cccc(C[S@](C)(=N)=O)c2)n1 | Tyrosine-protein kinase ABL1 (ABL1, Homo sapiens, UniProt P00519) | kinase activity | 10 µM, added: 10 µM ATP | – | remaining activity | 36%
C1=C/COCc2cc(ccc2OCCN2CCCC2)Nc2nccc(n2)-c2cccc(c2)COC/1 | Tyrosine-protein kinase ABL1 (ABL1, Homo sapiens, UniProt P00519, Q252H) | – | 0.1 µM | reference: DMSO control | remaining binding | 18%
Cc1cnn2ncc(-c3ccnc(N(C)C)n3)c2c1 | ABL1 F317L | KINOMEscan | 1 µM | – | remaining binding | 51% and 86%
[2H]c1cc(C)c(NC(=O)c2cnc(Nc3cc(N4CCCCC4)nc(C)n3)s2)c(Cl)c1 | ABL1 T315I | – | 0.01 µM | – | inhibition | < 30%
COc1cc(-c2cncc3c2CN(C)Cc2cc(N4CCNCC4)ccc2-3)cc(OC)c1OC | Tyrosine-protein kinase ABL1 (ABL1, Homo sapiens, UniProt P00519, Y253F) | kinase activity | 1 µM, added: ATP 10 µM | reference: DMSO control | remaining activity | 77%

Excerpt of the above:
Structure (SMILES) | target | test | conditions | scale | quantity | value
COc1cc(F)ccc1-c1ncnc(Nc2cccc(C[S@](C)(=N)=O)c2)n1 | Tyrosine-protein kinase ABL1 (ABL1, Homo sapiens, UniProt P00519) | kinase activity | 10 µM, added: 10 µM ATP | – | remaining activity | 36%
C1=C/COCc2cc(ccc2OCCN2CCCC2)Nc2nccc(n2)-c2cccc(c2)COC/1 | Tyrosine-protein kinase ABL1 (ABL1, Homo sapiens, UniProt P00519, Q252H) | – | 0.1 µM | reference: DMSO control | remaining binding | 18%
